Measured values from different studies.
Every numbered part comes from another study and shows a few of its results, in no order.
Sequence of UniProt Q9H2X6 (whole entry, looked up): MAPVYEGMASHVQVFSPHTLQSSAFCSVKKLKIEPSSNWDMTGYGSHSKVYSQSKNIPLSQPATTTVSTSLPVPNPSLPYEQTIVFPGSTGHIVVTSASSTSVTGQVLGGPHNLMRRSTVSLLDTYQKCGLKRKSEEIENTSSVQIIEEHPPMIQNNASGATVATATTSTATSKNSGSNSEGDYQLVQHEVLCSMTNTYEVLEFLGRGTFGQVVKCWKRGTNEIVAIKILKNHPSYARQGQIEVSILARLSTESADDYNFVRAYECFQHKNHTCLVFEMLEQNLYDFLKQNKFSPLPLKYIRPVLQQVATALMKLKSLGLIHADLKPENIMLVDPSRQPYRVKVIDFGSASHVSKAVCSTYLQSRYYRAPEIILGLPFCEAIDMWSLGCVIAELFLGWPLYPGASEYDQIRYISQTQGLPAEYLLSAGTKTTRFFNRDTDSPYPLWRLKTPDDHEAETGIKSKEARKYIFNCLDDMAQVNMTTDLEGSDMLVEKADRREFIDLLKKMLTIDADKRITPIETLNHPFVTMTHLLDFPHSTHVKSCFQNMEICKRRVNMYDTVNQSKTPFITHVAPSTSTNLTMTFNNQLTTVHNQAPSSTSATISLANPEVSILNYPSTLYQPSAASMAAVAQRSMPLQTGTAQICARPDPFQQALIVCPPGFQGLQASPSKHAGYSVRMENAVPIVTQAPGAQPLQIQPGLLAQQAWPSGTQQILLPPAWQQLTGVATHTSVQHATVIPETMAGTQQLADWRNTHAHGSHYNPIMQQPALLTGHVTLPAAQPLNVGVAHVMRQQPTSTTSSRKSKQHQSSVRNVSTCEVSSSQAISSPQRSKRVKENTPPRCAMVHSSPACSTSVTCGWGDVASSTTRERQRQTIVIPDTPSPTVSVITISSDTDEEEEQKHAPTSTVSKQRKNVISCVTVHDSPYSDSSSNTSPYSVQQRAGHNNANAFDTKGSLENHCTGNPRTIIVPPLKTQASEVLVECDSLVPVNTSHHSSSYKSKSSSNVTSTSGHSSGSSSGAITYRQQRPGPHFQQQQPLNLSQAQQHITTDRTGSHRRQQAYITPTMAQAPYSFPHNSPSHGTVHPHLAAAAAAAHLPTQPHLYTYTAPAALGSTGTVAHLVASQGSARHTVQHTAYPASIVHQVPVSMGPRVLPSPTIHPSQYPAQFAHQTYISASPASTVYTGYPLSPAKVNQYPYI
Sequence of UniProt Q9UK32 (whole entry, looked up): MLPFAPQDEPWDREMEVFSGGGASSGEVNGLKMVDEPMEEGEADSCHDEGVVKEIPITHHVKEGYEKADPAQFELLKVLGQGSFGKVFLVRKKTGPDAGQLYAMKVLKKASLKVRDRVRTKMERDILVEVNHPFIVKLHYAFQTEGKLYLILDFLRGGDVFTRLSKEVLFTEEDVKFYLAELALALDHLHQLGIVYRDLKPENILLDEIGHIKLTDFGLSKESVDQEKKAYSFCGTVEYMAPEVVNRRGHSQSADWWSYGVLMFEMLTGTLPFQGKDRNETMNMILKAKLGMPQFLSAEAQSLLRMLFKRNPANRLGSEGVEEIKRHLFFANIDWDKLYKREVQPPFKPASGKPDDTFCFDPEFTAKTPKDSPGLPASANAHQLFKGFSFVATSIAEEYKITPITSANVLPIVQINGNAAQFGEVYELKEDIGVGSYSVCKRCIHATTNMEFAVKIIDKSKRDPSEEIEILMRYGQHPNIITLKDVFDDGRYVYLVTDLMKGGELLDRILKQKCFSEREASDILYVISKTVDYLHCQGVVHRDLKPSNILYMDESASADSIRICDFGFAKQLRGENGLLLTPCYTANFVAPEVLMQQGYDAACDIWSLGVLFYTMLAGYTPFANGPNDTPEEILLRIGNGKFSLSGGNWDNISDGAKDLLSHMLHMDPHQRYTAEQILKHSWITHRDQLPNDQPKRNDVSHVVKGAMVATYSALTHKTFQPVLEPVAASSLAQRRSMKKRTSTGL
Sequence of UniProt P54762 (whole entry, looked up): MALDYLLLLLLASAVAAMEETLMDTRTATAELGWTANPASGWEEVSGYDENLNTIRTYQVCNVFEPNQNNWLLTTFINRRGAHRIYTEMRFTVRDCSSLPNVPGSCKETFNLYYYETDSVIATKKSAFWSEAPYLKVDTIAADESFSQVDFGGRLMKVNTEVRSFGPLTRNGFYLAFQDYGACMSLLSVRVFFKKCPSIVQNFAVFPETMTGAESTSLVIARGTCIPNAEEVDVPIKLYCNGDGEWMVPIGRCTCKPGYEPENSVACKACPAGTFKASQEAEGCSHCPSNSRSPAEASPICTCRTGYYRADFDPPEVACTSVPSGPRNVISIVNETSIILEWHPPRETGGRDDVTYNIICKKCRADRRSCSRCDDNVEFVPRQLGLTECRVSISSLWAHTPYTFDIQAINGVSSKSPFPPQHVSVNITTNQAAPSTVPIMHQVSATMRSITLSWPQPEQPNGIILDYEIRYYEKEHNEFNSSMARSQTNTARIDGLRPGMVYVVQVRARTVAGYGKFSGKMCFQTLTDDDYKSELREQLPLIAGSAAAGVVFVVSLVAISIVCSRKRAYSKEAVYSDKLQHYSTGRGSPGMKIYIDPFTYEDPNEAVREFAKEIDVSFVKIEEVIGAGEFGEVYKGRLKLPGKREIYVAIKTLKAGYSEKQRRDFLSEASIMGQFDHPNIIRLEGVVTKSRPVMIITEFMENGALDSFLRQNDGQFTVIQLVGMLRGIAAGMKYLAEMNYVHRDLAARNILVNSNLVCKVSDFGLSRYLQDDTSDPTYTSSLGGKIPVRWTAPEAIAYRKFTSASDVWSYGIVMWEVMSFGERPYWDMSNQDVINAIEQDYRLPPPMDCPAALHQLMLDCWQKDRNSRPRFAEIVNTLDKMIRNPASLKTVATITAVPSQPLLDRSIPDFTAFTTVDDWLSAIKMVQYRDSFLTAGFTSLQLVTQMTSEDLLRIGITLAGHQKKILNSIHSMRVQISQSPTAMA
Sequence of UniProt O43781 (whole entry, looked up): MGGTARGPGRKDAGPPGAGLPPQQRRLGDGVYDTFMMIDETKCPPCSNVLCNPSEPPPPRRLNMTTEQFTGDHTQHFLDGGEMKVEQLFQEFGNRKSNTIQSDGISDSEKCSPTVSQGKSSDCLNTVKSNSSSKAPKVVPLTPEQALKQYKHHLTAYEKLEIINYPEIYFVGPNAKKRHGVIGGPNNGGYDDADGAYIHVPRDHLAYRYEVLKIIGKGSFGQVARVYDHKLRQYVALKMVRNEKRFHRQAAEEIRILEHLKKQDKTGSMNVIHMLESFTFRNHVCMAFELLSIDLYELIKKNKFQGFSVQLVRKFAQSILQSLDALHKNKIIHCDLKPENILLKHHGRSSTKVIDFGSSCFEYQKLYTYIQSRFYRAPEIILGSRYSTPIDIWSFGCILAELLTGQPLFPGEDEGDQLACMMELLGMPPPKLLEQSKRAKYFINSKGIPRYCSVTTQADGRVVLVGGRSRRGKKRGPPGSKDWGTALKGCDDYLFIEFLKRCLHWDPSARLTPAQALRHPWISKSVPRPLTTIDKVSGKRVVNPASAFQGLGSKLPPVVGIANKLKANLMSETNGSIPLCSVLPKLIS
Sequence of UniProt Q16644 (whole entry, looked up): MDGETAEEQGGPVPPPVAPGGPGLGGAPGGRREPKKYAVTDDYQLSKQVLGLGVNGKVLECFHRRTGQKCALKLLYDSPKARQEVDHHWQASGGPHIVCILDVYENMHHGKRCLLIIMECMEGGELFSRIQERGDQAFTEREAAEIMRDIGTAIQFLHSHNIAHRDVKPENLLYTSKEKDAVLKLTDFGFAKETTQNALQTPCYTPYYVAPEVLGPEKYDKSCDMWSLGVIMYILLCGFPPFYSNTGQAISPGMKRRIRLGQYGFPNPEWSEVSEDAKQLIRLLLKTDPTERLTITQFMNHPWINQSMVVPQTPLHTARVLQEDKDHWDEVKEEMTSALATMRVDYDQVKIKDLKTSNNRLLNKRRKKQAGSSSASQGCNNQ
Sequence of UniProt P11802 (whole entry, looked up): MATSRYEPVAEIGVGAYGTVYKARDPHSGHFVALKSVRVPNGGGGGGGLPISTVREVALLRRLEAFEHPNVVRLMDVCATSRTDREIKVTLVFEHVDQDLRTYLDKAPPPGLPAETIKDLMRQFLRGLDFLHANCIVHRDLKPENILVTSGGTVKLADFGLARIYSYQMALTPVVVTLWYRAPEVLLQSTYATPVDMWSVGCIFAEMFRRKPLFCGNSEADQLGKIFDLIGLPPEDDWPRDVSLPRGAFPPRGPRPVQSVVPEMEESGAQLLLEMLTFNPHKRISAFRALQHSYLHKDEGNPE
Sequence of UniProt O75716 (whole entry, looked up): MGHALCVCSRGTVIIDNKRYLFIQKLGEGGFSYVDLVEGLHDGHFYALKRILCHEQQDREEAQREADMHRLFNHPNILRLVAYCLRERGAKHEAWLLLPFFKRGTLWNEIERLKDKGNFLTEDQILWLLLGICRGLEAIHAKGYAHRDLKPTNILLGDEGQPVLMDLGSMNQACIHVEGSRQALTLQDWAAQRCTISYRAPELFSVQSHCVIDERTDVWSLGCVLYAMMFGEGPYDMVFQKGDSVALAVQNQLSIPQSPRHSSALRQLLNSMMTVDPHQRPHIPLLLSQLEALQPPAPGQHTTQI

Series 1
Species: human
Sample: microsomes or S9
Concentration: 2 µM
Time: 0.5 h
Endpoint: remaining compound
SMILES = CO[C@H]1C[C@H]2CC(C)(O)[C@@H](/C=C/c3ccc(-c4cccc(F)c4)cn3)[C@@H]2C[C@H]1NC(=O)OC(C)(C)C (stereo partly shown); result = 22.6%
SMILES = Cc1ccc(NC(=O)CN(C)S(=O)(=O)c2ccc(Br)s2)c(Cl)c1; result = < 1%
SMILES = CC1=CCC(c2nnco2)C(c2ccc(F)cc2)C1 (stereo not shown); result = 29.5%
SMILES = Cc1nc2ccccc2n1Cc1cc(NCc2ccccc2OC(C)C)nc(N)n1; result = 1.6%
SMILES = COc1c(NC(=O)c2ccc[nH]2)cc(Cl)cc1C(=O)N(C)C; result = 107%
SMILES = Cc1cc(=O)n2nc(CN(C(=O)CC(C)C)c3ccc(F)cc3)nc2[nH]1; result = 93.7%
SMILES = CCN1CCN(C(=O)c2ccc3c(c2)N(Cc2cccc(Cl)c2)C(=O)c2ccccc2[S+]3[O-])CC1 (stereo not shown); result = 32.3%
SMILES = c1ccc(OCCN2CCCC3(C2)Nc2ccccc2-n2cccc23)cc1 (stereo not shown); result = 2.37%

Series 2
Target: Alpha-2C adrenergic receptor (ADRA2C, Homo sapiens, UniProt P18825)
Sequence of UniProt P18825 (whole entry, looked up): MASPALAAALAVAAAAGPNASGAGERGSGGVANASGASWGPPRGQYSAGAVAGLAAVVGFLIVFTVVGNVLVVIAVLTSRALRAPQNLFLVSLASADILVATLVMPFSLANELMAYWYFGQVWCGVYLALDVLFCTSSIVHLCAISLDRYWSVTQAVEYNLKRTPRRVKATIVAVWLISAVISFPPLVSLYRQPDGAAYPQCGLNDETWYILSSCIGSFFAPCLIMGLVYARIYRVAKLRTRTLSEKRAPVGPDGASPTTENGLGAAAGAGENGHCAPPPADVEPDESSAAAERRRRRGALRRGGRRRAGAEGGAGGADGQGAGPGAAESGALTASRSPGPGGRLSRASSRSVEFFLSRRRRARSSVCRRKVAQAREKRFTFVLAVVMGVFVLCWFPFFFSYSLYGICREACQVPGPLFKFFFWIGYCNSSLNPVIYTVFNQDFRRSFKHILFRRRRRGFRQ
Read-out: ligand displacement
Concentration: 10 µM
Endpoint: inhibition
SMILES = Cc1ccc(-c2cnc([C@@]3(O)CC[C@H](C(=O)O)C(C)(C)C3)s2)cc1Nc1cccc(C(F)(F)F)n1; result = 11.9%
SMILES = Nc1nc(NCc2ccccc2)nc(-c2cccc(CO)c2)n1; result = 1.4%
SMILES = N#CC1(c2ccccn2)CCN(Cc2cc(C(=O)N3CCCC3)c(=O)n3ccccc23)CC1; result = 1.13%
SMILES = O=C(NS(=O)(=O)c1ccc(NCC2CCOCC2)c([N+](=O)[O-])c1)c1ccc(N2CCN(Cc3ccc(C(F)(F)F)cc3-c3ccc(Cl)cc3)CC2)cc1Oc1cnc2[nH]ccc2c1; result = 12.7%
SMILES = CN(C)C(=O)c1sc2nc(N3CCC(S(C)(=O)=O)CC3)cc(C(F)(F)F)c2c1N; result = 2.96%
SMILES = CO[C@H]1CC[C@H](CNc2ccc(S(=O)(=O)NC(=O)c3ccc(N4CCN(CC5=C(c6ccc(Cl)cc6)CC(C)(C)CC5)CC4)cc3Oc3cnc4[nH]ccc4c3)cc2[N+](=O)[O-])CC1; result = 15.6%
SMILES = Nc1nc(NCc2ccccc2)nc(-c2ccccc2CO)n1; result = 0.87%
SMILES = CC1=C(C#N)C(c2ccc3[nH]nc(C)c3c2)C(C#N)=C(C)N1; result = -4.65%
SMILES = CN1CCN(c2cnc3c(C4CCN(C(=O)c5ccc(OC(F)(F)F)cc5N)CC4)ncnc3c2)CC1; result = -2.34%
SMILES = O=C(NCCCC1CCCCC1)c1ccc(CNC(=O)c2cnn(-c3ccccc3)c2C(F)(F)F)cc1; result = 3.68%
SMILES = CN(C)c1ncnc(-c2ccc3nc(Nc4cc(CN5CCN(C(=O)CC(F)(F)F)CC5)ccn4)[nH]c3c2)c1Cl; result = 7.09%
SMILES = COc1cc(C(=O)O)ncc1C#Cc1ccccc1NS(=O)(=O)c1cccc2c(N(C)C)ccnc12; result = 13%
SMILES = CN([C@@H]1CCc2c(CC(=O)O)c3ccccc3n2C1)S(=O)(=O)c1ccc(F)cc1; result = -3.1%
SMILES = O=C(Nc1ccc(Oc2ccc(F)cc2)cc1)N1CCc2ncccc2[C@H]1c1ccc(F)cc1; result = 8.47%
SMILES = C[C@@H](c1cccc(C#N)c1)n1cc(Cl)cc(C(N)=O)c1=N; result = 3.93%
SMILES = CC(=O)Nc1ncc(CN2CCC[C@H](Cc3cc(C)nc(C)c3)C2)s1; result = 31.9%
SMILES = CCc1ccccc1C(=O)Nc1n[nH]c2c(C)c(F)c(C3C(C#N)=C(C)N(C)C(C)=C3C#N)cc12; result = 10%
SMILES = Nc1cnc(N2CCc3cc(S(=O)(=O)Nc4c(F)cc(Cl)cc4F)cc(N4CCCC4=O)c32)nc1; result = -14.3%
SMILES = COc1cc(N[C@@H]2CCCC[C@]2(O)C(F)(F)F)ccc1F; result = -3.92%
SMILES = Cc1cc(Nc2nccc(C)n2)cc(-c2cnc([C@@]3(O)CC[C@H](C(=O)O)C(C)(C)C3)s2)c1; result = -3.94%

Series 3
SMILES: O=C1Nc2ccccc2/C1=C\c1c(Cl)[nH]c2ccccc12
Read-out: enzyme activity
Mode: inhibitor
Concentration: 0.5 µM
Reference: control
Endpoint: remaining activity
target = Phosphorylase b kinase gamma catalytic chain, skeletal muscle/heart isoform (PHKG1, Homo sapiens, UniProt Q16816); result = 85.4%
target = Tyrosine-protein kinase Blk (BLK, Homo sapiens, UniProt P51451); result = 95.4%
target = Testis-specific serine/threonine-protein kinase 2 (TSSK2, Homo sapiens, UniProt Q96PF2); result = 113%
target = Tyrosine-protein kinase receptor UFO (AXL, Homo sapiens, UniProt P30530); result = 97.8%
target = Serine/threonine-protein kinase 16 (STK16, Homo sapiens, UniProt O75716); result = 102%
target = Cyclin-dependent kinase 6, with cyclin D3 (CDK6, Homo sapiens, UniProt Q00534); result = 104%
target = Mitogen-activated protein kinase kinase kinase kinase 4 (MAP4K4, Homo sapiens, UniProt O95819); result = 75.7%
target = Serine/threonine-protein kinase 17A (STK17A, Homo sapiens, UniProt Q9UEE5); result = 95.2%
target = Tyrosine-protein kinase Srms (SRMS, Homo sapiens, UniProt Q9H3Y6); result = 84.2%
target = Serine/threonine-protein kinase WNK3 (WNK3, Homo sapiens, UniProt Q9BYP7); result = 101%
target = Homeodomain-interacting protein kinase 2 (HIPK2, Homo sapiens, UniProt Q9H2X6); result = 96.5%
target = Ribosomal protein S6 kinase alpha-5 (RPS6KA5, Homo sapiens, UniProt O75582); result = 85.5%
target = Ephrin type-A receptor 4 (EPHA4, Homo sapiens, UniProt P54764); result = 93.4%
target = 3-phosphoinositide-dependent protein kinase 1 (PDPK1, Homo sapiens, UniProt O15530); result = 94.3%
target = Dual specificity tyrosine-phosphorylation-regulated kinase 3 (DYRK3, Homo sapiens, UniProt O43781); result = 101%
target = Homeodomain-interacting protein kinase 4 (HIPK4, Homo sapiens, UniProt Q8NE63); result = 98.8%
target = Cyclin-dependent kinase 4, with cyclin D3 (CDK4, Homo sapiens, UniProt P11802); result = 97.4%
target = MAP kinase-activated protein kinase 3 (MAPKAPK3, Homo sapiens, UniProt Q16644); result = 91.3%
target = Cyclin-dependent kinase 1, with cyclin B (CDK1, Homo sapiens, UniProt P06493); result = 94.3%
target = Ephrin type-B receptor 4 (EPHB4, Homo sapiens, UniProt P54760); result = 90.2%
target = Ephrin type-B receptor 1 (EPHB1, Homo sapiens, UniProt P54762); result = 90.8%
target = Calcium/calmodulin-dependent protein kinase type II subunit beta (CAMK2B, Homo sapiens, UniProt Q13554); result = 108%
target = Ribosomal protein S6 kinase alpha-6 (RPS6KA6, Homo sapiens, UniProt Q9UK32); result = 91.2%

Further values, each from its own experiment
Compound = CC(C)n1cnc(-c2ccc(F)cc2)c1-c1ncc(C(=O)Nc2ccc(N3CCN(C)CC3)cc2)[nH]1; system = human, idiopathic pulmonary fibrosis; setting = 30 mg once daily, trial, treatment-emergent; endpoint = grade 5 ECG high voltage; result = 0%

A few entries again (series 2):
SMILES = CC(=O)Nc1ncc(CN2CCC[C@H](Cc3cc(C)nc(C)c3)C2)s1; result = 31.9%
SMILES = CO[C@H]1CC[C@H](CNc2ccc(S(=O)(=O)NC(=O)c3ccc(N4CCN(CC5=C(c6ccc(Cl)cc6)CC(C)(C)CC5)CC4)cc3Oc3cnc4[nH]ccc4c3)cc2[N+](=O)[O-])CC1; result = 15.6%
SMILES = Nc1nc(NCc2ccccc2)nc(-c2cccc(CO)c2)n1; result = 1.4%
SMILES = O=C(Nc1ccc(Oc2ccc(F)cc2)cc1)N1CCc2ncccc2[C@H]1c1ccc(F)cc1; result = 8.47%
SMILES = COc1cc(N[C@@H]2CCCC[C@]2(O)C(F)(F)F)ccc1F; result = -3.92%
SMILES = CN1CCN(c2cnc3c(C4CCN(C(=O)c5ccc(OC(F)(F)F)cc5N)CC4)ncnc3c2)CC1; result = -2.34%
SMILES = O=C(NCCCC1CCCCC1)c1ccc(CNC(=O)c2cnn(-c3ccccc3)c2C(F)(F)F)cc1; result = 3.68%
